# Experimental data pooled from the literature.
# A part holds a random share of what one study measured.

# Sample 1
# Target: Histone acetyltransferase KAT6A, winged helix 2, GST fusion (KAT6A, Homo sapiens, UniProt Q92794, residues 85-181)
# Technique: protein binding microarray
# Form: double-stranded DNA, one strand shown
# Sample: in vitro
# Tested at: not given
# Setting: 8-mer, flanks averaged, mean of 2 arrays, mostly near background
# Relative to: not given
# Direction: higher = stronger binding
# Construct (chain): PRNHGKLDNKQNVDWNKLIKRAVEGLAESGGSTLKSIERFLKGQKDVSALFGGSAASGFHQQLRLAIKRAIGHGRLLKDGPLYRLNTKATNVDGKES
Oligonucleotide,E-score
AGATGCGC,0.138
CTTACAAG,0.0258
ATTGGGTA,-0.131
GAGATTGC,-0.0506
ATCGTAGC,-0.0825
TGGAAACA,-0.0767
GAGCGAAA,0.176
CCTGCGAA,0.136
GAAAGGGC,0.109
ACTGCTAT,-0.0718
TGGTGAAA,0.0208
GAAGGGAC,0.0353
GTCGCCAC,-0.0136
CGACGGCG,0.134
CAAGGGAG,0.121
ATTCCTAA,-0.0367
GCAAAGGC,-0.0257
GAAATATC,0.0351

# Sample 2
# Target: Sal-like protein 4, full length isoform B (SALL4, Homo sapiens, UniProt Q9UJQ4-2, residues 1-616)
# Technique: universal PBM
# Form: double-stranded DNA, one strand shown
# Sample: in vitro
# Tested at: not given
# Setting: 8-mer, flanks averaged, mean of replicates
# Direction: higher = stronger binding
# Target sequence (chain): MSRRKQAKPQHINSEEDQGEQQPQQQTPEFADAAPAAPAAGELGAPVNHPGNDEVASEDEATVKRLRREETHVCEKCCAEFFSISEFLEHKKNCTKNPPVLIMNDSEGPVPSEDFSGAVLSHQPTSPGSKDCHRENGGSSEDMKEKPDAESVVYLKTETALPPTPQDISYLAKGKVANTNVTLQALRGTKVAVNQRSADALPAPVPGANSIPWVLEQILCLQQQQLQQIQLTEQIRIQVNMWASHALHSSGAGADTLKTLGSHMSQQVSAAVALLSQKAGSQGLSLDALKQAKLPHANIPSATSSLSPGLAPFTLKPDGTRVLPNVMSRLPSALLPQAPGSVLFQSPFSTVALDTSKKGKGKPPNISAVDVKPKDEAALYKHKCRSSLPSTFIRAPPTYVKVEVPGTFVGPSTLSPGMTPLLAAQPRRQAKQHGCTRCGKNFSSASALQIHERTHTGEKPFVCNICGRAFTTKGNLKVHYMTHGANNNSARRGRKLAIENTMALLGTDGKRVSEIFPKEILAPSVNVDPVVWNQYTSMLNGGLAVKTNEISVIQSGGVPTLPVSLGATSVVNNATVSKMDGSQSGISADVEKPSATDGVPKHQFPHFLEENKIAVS
Oligonucleotide,E-score
CCCCCTGA,-0.295
CTTTTCGA,0.00318
TCTAGAGA,-0.0145
AATATGCC,0.133
CGCGAACA,-0.04
CGAGTAGC,-0.0969
AAGTTTCC,0.118
GGATCCGA,-0.15
AGAGTACG,-0.103
ATTACTGC,0.197
AGATTAGA,0.172
GGATAGAA,0.0473
CAAAACTC,0.0896
CCAGCTAC,-0.172
CGTTTAAA,0.112
ATATCCCA,0.234
CGCGCCGA,-0.29
ATTGCGGA,0.0585
CCTTGTCA,0.171
AAAAACAA,0.261
AGAGTCAT,0.0591
CGCCGTTA,-0.0504
GAGGAGCC,-0.232
TGGAACCA,-0.0895
CGAGTTTC,-0.111

# Sample 3
# Target: Ras GTPase-activating protein-binding protein 1, RRM domain (G3BP1, Homo sapiens, UniProt Q13283)
# Sequence of UniProt Q13283 (whole entry, looked up): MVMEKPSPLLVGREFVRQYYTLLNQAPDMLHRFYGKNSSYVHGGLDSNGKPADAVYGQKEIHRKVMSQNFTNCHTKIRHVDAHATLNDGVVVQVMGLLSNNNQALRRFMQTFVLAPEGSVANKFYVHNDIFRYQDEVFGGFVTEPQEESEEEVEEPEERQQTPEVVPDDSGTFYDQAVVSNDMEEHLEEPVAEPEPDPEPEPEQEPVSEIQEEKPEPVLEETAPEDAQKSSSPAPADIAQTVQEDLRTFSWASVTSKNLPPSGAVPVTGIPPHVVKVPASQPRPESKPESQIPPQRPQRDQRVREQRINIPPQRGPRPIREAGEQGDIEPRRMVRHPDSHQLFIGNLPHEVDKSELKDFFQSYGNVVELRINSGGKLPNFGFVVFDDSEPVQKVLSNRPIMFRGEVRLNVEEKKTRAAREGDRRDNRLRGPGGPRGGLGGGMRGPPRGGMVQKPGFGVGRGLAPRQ
# Technique: RNA Bind-n-Seq
# Form: RNA
# Sample: in vitro
# Tested at: 1 µM
# Setting: whole 134-nt RNA, ends assumed
# With: 150 mM KCl
# Relative to: input library
# Direction: higher = stronger binding
Oligonucleotide,log2 enrichment
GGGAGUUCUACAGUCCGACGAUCAAGUCCUGUGCUACACAUCGUAUGUACCGAAUCGGUUUUGGGGUUUUGGGUUUUGGGAAAGUAUUAUGUUACGCCGUUCGGAUCUGCACUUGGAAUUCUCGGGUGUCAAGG,-0.012
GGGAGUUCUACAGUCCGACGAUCUCCUGUGCUACACAUCGUAUGUACCGAAUCGGGAAAAAAAGGGAAAGGGAAAAAAAGGGAAAGUAUUAUGUUACGCCGUUCGGAUCUGCAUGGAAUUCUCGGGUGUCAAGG,0.132
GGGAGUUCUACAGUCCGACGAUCGUCCUGUGCUACACAUCGUAUGUACCGAAUCGGCCCCCCGGGGCCCCCCGGCCCCCCGGAAAGUAUUAUGUUACGCCGUUCGGAUCUGCAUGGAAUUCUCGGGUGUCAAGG,-0.355
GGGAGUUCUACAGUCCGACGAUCCCUGUGCUACACAUCGUAUGUACCGAAUCGGGAAAAAAAGGGAAAAAAAGGGAAAAAAAGGAAAGUAUUAUGUUACGCCGUUCGGAUCUGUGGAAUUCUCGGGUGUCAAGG,0.0577
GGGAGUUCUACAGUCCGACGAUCCUGUGCUACACAUCGUAUGUACCGAAUCGGGUUUUUUUGGGUUUUUUUGGGGUUUUUUUGGGAAAGUAUUAUGUUACGCCGUUCGGAUCUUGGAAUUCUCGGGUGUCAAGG,-0.157
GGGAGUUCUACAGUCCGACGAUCUGGGAGGUGGAUUUUGUUUAUUUUUUAAGCUCAUUUCCAGGGGUGGGAAUUUUUUUUUAAUAUGUGUCAUGAAUAAAGUUGUUUUUGAAAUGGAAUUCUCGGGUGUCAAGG,1.7
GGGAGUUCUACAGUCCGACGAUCAAGUCCUGUGCUACACAUCGUAUGUACCGAAUCGGGAAAAAAAGGGAAAGGGAGGGAAAGUAUUAUGUUACGCCGUUCGGAUCUGCACUUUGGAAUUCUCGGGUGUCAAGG,0.836
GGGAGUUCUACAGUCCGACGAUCUCCUGUGCUACACAUCGUAUGUACCGAAUCGGGGUUUGGGGUUUUUGGGGAAAAAGGGGAAAGUAUUAUGUUACGCCGUUCGGAUCUGCAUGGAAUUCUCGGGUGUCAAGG,1.35
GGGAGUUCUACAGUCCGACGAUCUGGCCCUGGUGGCAUGCGGGGAGGAAGAGGUGGCCUCAUGGAUCGUGGUGGUCCCGGUGGAAUGUACAGAGGUGGCCGUGGUGGAGACAGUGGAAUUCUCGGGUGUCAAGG,1.51
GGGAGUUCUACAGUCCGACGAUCUCCUGUGCUACACAUCGUAUGUACCGAAUCGGGGCCCCCCGGCCCCCCGGGGCCCCCCGGAAAGUAUUAUGUUACGCCGUUCGGAUCUGCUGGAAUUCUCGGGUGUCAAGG,-0.432

# Sample 4
# Target: RNA binding protein fox-1 homolog 2, RRM domain, GST-SBP tag (RBFOX2, Homo sapiens, UniProt O43251-10, residues 100-194)
# Technique: RNA Bind-n-Seq
# Form: RNA
# Sample: in vitro
# Tested at: 365 nM
# Setting: natural RNA segment, single round, ends assumed
# Relative to: no-protein control
# Direction: higher = stronger binding
# Construct (chain): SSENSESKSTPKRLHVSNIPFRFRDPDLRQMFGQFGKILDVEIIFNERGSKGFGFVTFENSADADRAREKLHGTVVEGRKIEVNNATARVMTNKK
Oligonucleotide,RBNS enrichment (R)
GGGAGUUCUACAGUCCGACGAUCUGUGAGCCAGAUGUAACACUCCAAGCAGCUGUGAAAUGCAAUGUUCCUUUUGCAGGAGUGGCUGUACCUGCAGAAAGCCCAGGGGUCCACAGUACAGUGCAGGAGAAGCAUGGAAUUCUCGGGUGCCAA,11.1
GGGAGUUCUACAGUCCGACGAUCCUUAAUUGAAAUCUAAGCUUUUUACCGCUUUCCCCUCCUUGCCCUCUCUCCUCCCUUCUGCCCUCCUUGCAUUGUGAUGAUCUAGUGGGCAUGUCUGUCACCUGGACAAUUGGAAUUCUCGGGUGCCAA,0.785
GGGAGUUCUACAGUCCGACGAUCAGACGUGACUGGCUUUUAGAGUGAGCAUUUCAGUGGUUAGCUAUCAGCUUUUGAAGUCUGGGCAGUUGACAAAGACCAGCCUGGUCCUAGUUAAUGGUAGAAUACUCCCAUGGAAUUCUCGGGUGCCAA,0.336
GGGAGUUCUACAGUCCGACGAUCUGCAAGUUUUAGAUCCAAUCUGCCUCAACAGUCAAUCAGUGUUCAUAUUUAUGGCCAGGCAUUCUAUCUGUUAGACAAUCGAGUUGGGGGUAGGGCAGCCUAGCUCUUUUUGGAAUUCUCGGGUGCCAA,2.39
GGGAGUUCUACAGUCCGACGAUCUGACUCAAGAAAGUACAAGUAAACUAUACACCUUUUUUUCAUAAGUUUUAGGAACUGUAGUAAUGUGGCUUAGAAAGUAUAAUGGCCUAAAUGUUUUCAAAAUGUAAGUUUGGAAUUCUCGGGUGCCAA,1.37
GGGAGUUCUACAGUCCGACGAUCAUGGAAGUUGCUUCAGAUAUCUGAUACUGUGAAUGUUUGAACAUAUCCGUGGCCUUCACCUCUCCAGCUACCCUUUUACCUCAUCAGAAGCAGUGGCUCAGCUAAGUGCUUGGAAUUCUCGGGUGCCAA,0.765
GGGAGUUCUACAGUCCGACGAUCGGGCAUGAACUGAGGAUUGUAUUGAAGACUGUGGUUUUUAAGCCUCGCUGUAAAGAAAGGCCAUGCUUUUGUGUUAGUGGAGACAGUCUAGAGUUGCUCAGAAUCUUGUAUGGAAUUCUCGGGUGCCAA,0.913
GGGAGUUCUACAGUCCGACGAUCAAUAUUACCUCAGAUACCUGUUGUCACUCUUCACAGGUUAUUUAAGUUUUUGAAGCUGGGAGGAAAAAGAUGGAGUAGCUUGGAAAGAUUCCAGCACUGAGCCGUGGGCCUGGAAUUCUCGGGUGCCAA,0.668
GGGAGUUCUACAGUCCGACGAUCGCUAAAUGAAACAGUGGCUUAAAUAUUUUAAUGGGAAAAGAGAACACAGUGCGUUCCAUAUUGUGAUAAGGUAACGUGAGGUUUUUUUGUUUUGUUUUGUUUUCUUUUUUUGGAAUUCUCGGGUGCCAA,1.06
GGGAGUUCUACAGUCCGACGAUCUCUAGAUGCACAAUCCAAUACAGUGGCCUCGUGUGGCUGUAUAACUCGGUUCACUUCAGACUACGUGAUUGGAAGUCAUUCCUCGGUUGCACUAGCCACACAAAAUGCUCUGGAAUUCUCGGGUGCCAA,0.254
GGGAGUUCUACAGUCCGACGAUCCACUUUCCCUUAGCCCCUCUGCUGGGUAGAGAGGCACUUUCAGGGACUUCCCUCCAGCUGCCUCUUCAUCUGGGAAUGAGCUAAGCAAGGCUGAGCCUCCUCCUGUUGCUUGGAAUUCUCGGGUGCCAA,0.271
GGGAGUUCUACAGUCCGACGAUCCUGCUCACUUAGAUGUACCUUGUGCUUUGAAGAUUUCUUUGAUGCAGUCUUUGUAACAAAUAAUUUUUUUUUUUAAAUGGAGUUUCUCUCUUGUUGCCCAGGCUGGAGGGUGGAAUUCUCGGGUGCCAA,0.748

# For quick reference, copied from above (sample 2):
Oligonucleotide,E-score
CCCCCTGA,-0.295
AAAAACAA,0.261
CGAGTTTC,-0.111
ATATCCCA,0.234
GGATCCGA,-0.15
CAAAACTC,0.0896
AGAGTCAT,0.0591
